Assay results from different studies.
Each line is one published result; not all experiments were run side by side. Numbers after ± are the reported error.

Cc1nn(-c2ccccc2)c(O)c1C(c1ccc(N(C)C)cc1)c1c(C)nn(-c2ccccc2)c1O — IC50 (Ishikawa; cell growth or viability, MTT; 48 h): > 40 µM
NC1CCCCC1N.O=C1[O][Pt]([O]C(=O)c2ccc(P(c3ccccc3)c3ccccc3)cc2)([O]C(=O)c2ccc(P(c3ccccc3)c3ccccc3)cc2)[O]C1=O.[Cl][Au].[Cl][Au] — IC50 (MDA-MB-157; cell growth or viability, resazurin; 72 h): 3.9 µM
CC[C@H](C)[C@H](NC(=O)CNC(=O)[C@H](C)NC(=O)[C@H](CCC(=O)O)NC(=O)[C@@H]1CCCN1C(=O)CNC(=O)[C@H](C)NC(=O)[C@H](CCC(=O)O)NC(=O)[C@H](C)NC(=O)[C@H](CC(=O)O)NC(=O)[C@H](C)NC(=O)[C@H](CCC(=O)O)NC(=O)[C@H](C)NC(=O)[C@H](CCC(=O)O)NC(=O)[C@@H]1CCCN1C(=O)[C@@H](N)CCC(=O)O)C(=O)NCC(=O)N[C@@H](C)C(=O)N[C@H](C(=O)N[C@@H](CC(C)C)C(=O)N[C@@H](CCCCN)C(=O)N[C@H](C(=O)N[C@@H](CC(C)C)C(=O)N[C@H](C(=O)N[C@H](C(=O)NCC(=O)N[C@@H](CC(C)C)C(=O)N1CCC[C@H]1C(=O)N[C@@H](C)C(=O)N[C@@H](CC(C)C)C(=O)N[C@H](C(=O)N[C@@H](CO)C(=O)N[C@@H](Cc1c[nH]c2ccccc12)C(=O)N[C@H](C(=O)N[C@@H](CCCCN)C(=O)N[C@@H](CCCNC(=N)N)C(=O)N[C@@H](CCCCN)C(=O)N[C@@H](CCCNC(=N)N)C(=O)N[C@@H](CCC(N)=O)C(=O)N[C@@H](CCC(N)=O)C(N)=O)[C@@H](C)CC)[C@@H](C)CC)[C@@H](C)O)[C@@H](C)O)C(C)C)C(C)C — IC50 (MCF7 vector control (FAP-negative); cell viability, MTT; 72 h): 45.6 ± 5.6 µM
Cc1cc(C)c(N2CCN(c3c(C)cc(C)cc3C)C2=[Se])c(C)c1.[Cl][Ag] — IC50 (PSN1; cell growth or viability, MTT; 72 h): 1.2 µM
O=C(C[P+]([Au-][Cl])(c1ccccc1)c1ccccc1)[O][Ti+2][O]C(=O)C[P+]([Au-][Cl])(c1ccccc1)c1ccccc1.c1cc[cH-]c1.c1cc[cH-]c1 — IC50 (CAKI-1; cell viability, XTT; 24 h): 6 µM
O=C1CC2(C1)C(=O)[O][Pt]1([Cl])([O]C(=O)C(F)(F)F)([NH][C@@H]3CCCC[C@H]3[NH]1)[O]C2=O — IC50 (BGC803; cell growth or viability, MTT): 15 µM
CNC(=O)c1cc(Oc2ccc(NC(=O)c3cc(-c4cccc(OC(=O)CCC(=O)OC5OC6OC7(C)CCC8C(C)CCC(C5C)C68OO7)c4)ccn3)cc2)ccn1 (centres unmarked) — IC50 (Huh-7; cell growth or viability, MTT; 72 h): 7.97 µM
[Cl][Au].[Se]=c1n(C2CCCCC2)ccn1C1CCCCC1 — IC50 (A2780 ADR; MTT; 72 h): 0.2 ± 0.02 µM
C=C(C(=O)OC)[C@@H]1CC[C@@]2(C)CCC(=O)C(C)=C2C1 — IC50 (human Neutrophil; superoxide release, inhibitor, absorbance): > 10 µM
C[C@H]1C(OCCCCC[P+](c2ccccc2)(c2ccccc2)c2ccccc2)O[C@@H]2O[C@@]3(C)CCC4[C@H](C)CCC1[C@]42OO3 (some centres unmarked) — IC50 (OVCAR-3; cell growth or viability, MTT; 72 h): 0.177 µM
COc1ccc2sc3c(c2c1)SCCNC3=O — IC50 (CFPAC-1; cell growth or viability, MTT): 13.4 µM

A few entries again:
[Cl][Au].[Se]=c1n(C2CCCCC2)ccn1C1CCCCC1 — IC50 (A2780 ADR; MTT; 72 h): 0.2 ± 0.02 µM
C=C(C(=O)OC)[C@@H]1CC[C@@]2(C)CCC(=O)C(C)=C2C1 — IC50 (human Neutrophil; superoxide release, inhibitor, absorbance): > 10 µM
